Experimental data from different studies.
“And” joins repeats or separate records; there may be more than shown. ± marks the error that the study gave.

CC[C@H](C)[C@H](NC(=O)[C@H](Cc1ccccc1)NC(=O)[C@H](CCC(=O)O)NC(=O)[C@H](CCCNC(=N)N)NC(=O)[C@H](C)NC(=O)[C@H](C)NC(=O)[C@H](CCC(N)=O)NC(=O)[C@H](CCC(=O)O)NC(=O)[C@H](CCC(=O)O)NC(=O)[C@H](CC(C)C)NC(=O)[C@H](Cc1ccc(O)cc1)NC(=O)[C@H](CO)NC(=O)[C@H](CO)NC(=O)[C@@H](NC(=O)[C@H](CC(=O)O)NC(=O)[C@H](CO)NC(=O)[C@@H](NC(=O)[C@H](Cc1ccccc1)NC(=O)[C@@H](NC(=O)CNC(=O)[C@H](CCC(=O)O)NC(=O)[C@H](C)NC(=O)CCc1cnc[nH]1)[C@@H](C)O)[C@@H](C)O)C(C)C)C(=O)N[C@@H](C)C(=O)N[C@@H](Cc1c[nH]c2ccccc12)C(=O)N[C@@H](CC(C)C)C(=O)N[C@H](C(=O)N[C@@H](CCCNC(=N)N)C(=O)NCC(=O)N[C@@H](CCCNC(=N)N)C(=O)N[C@@H](CCCCNC(=O)COCCOCCNC(=O)COCCOCCNC(=O)CC[C@H](NC(=O)CCCCCCCCCCCCCCCCC(=O)O)C(=O)O)C(=O)NCC(=O)NCC(=O)N[C@@H](CO)C(=O)N[C@@H](CCCCNC(=O)[C@H](CCCCNc1c(NCCCCCN(O)C(=O)CCC(=O)NCCCCCN(O)C(=O)CCC(=O)NCCCCCN(O)C(C)=O)c(=O)c1=O)Nc1c(NCCCCCN(O)C(=O)CCC(=O)NCCCCCN(O)C(=O)CCC(=O)NCCCCCN(O)C(C)=O)c(=O)c1=O)C(=O)O)C(C)C [zirconium-89 labelled]
tissue uptake (ex vivo gamma counting; Sprague-Dawley rat, male, bone marrow; intravenous, 1 nmol, 24 h): 0.739 %ID/g and 0.638 %ID/g and 0.628 %ID/g and 0.757 %ID/g and 0.77 %ID/g

CC(C)C[C@H](NC(=O)[C@H](CCCCN)NC(=O)OCC1c2ccccc2-c2ccccc21)C(=O)N[C@H](C(=O)N[C@@H](Cc1ccccc1)C(=O)N[C@@H](Cc1ccccc1)C(=O)N[C@@H](CCCCN)C(=O)NCC(=O)N[C@@H](Cc1ccccc1)C(=O)N[C@@H](C)C(=O)N[C@@H](Cc1c[nH]c2ccccc12)C(=O)N[C@@H](CC(N)=O)C(=O)N[C@H](C(=O)N[C@H]1CSSC[C@@H](C(=O)N[C@@H](Cc2c[nH]cn2)C(=O)N[C@@H](CCCNC(=N)N)C(=O)N[C@@H](CCCNC(=N)N)C(=O)N[C@@H](C)C(=O)N[C@@H](CC(N)=O)C(N)=O)NC(=O)[C@H](C(C)C)NC(=O)[C@H](CCCNC(=N)N)NC(=O)[C@H](C(C)C)NC(=O)CNC(=O)[C@H](CC(N)=O)NC(=O)[C@H](CCCNC(=N)N)NC(=O)[C@H](Cc2ccc(O)cc2)NC(=O)[C@H](C(C)C)NC1=O)C(C)C)C(C)C
platelet distribution width (ICR mice, blood; intraperitoneal, 5 mg/kg, day 5): 15.8 ± 0.33%

CCCSc1ccc2nc(NC(=O)OC)[nH]c2c1
equilibrium solubility (simulated gastric fluid; 24 h, pH 1.2, 37 °C): 318 µg/mL

CC(C)CC(=O)OC[C@H]1O[C@@](C#N)(c2ccc3c(N)ncnn23)[C@H](O)[C@@H]1O
remaining compound (mouse whole blood; 5 µM, 60 min): 0%

COc1cc2c(Oc3ccc4[nH]c(C)cc4c3F)ccnc2cc1OCC1(N)CC1
grade 3 Dizzy (paediatric recurrent refractory sarcoma; 10 mg): 0%

O=C1Nc2cc3[nH]nc(-c4ccncc4)c3cc2CN1Cc1ccccc1
patients with blurred vision (CTCAE v4.03; advanced solid tumour patients; intravenous, 6.4 mg/kg): 33%

COC[C@@H](CC(C)C)NC(=O)c1ccc(C)c(C)c1
PCE to total erythrocyte ratio (Hsd:ICR (CD-1) mouse, male, bone marrow; oral, 2000 mg/kg, 48 h): 0.522

Cc1c(C(=O)O)ccc2c3n(nc12)[C@@H]1[C@H](C3)N(CC2CC2)[C@@]2(C(=O)Nc3cc(Cl)ccc32)[C@H]1c1cccc(Cl)c1F
tumour concentration (athymic nude mice, orthotopic brain tumour PDX, tumour; 10 mg/kg single, 24 h): 263 ± 43 nM

CO[C@H]1C[C@@H]2CC[C@@H](C)[C@@](O)(O2)C(=O)C(=O)N2CCCC[C@H]2C(=O)O[C@H]([C@H](C)C[C@@H]2CC[C@@H](OC(=O)NCCOCCOCCOCCOCCOCCOCCOCCOCCC(=O)N3CCc4cc(Cn5nc(-c6ccc7oc(N)nc7c6)c6c(N)ncnc65)ccc4C3)[C@H](OC)C2)C[C@@H](O)[C@H](C)/C=C(\C)[C@@H](O)[C@@H](OC)C(=O)[C@H](C)C[C@H](C)/C=C/C=C/C=C/1C
pneumonia AE leading to dose reduction (patients with advanced solid tumours; intravenous, 16 mg weekly, any grade): 0%

CN1CC[C@@H](c2c(O)cc(O)c3c(=O)cc(-c4ccc(C(F)(F)F)cc4Cl)oc23)[C@@H]1CO
patients with adverse event (refers to: Anemia; relapsed or refractory haematological malignancies; oral, dose not given, grade 3 to 4, all arms): 17.5%

CC(C)[C@@H](CN1CC[C@@](C)(c2cccc(O)c2)[C@@H](C)C1)NC(=O)[C@@H]1Cc2ccc(O)cc2CN1C
AUCtotal (rat, plasma; intraperitoneal, 5 mg/kg): 1100 ng·h/mL

NC(=O)[C@H]1CCN(c2ncnc(N)c2F)C[C@@H]1N1CCC[C@@H](Nc2cc(Cl)cc(C(F)(F)F)c2)C1=O
grade ≥3 hypocalcaemia (B-cell malignancy patients; oral, 164 mg twice daily, dose): 25%

C[C@H]1COCCN1c1nc(NCc2cccnc2C(F)(F)F)c2cccnc2n1
PR change (conscious rat; intravenous, 30 mg/kg; relative to: control): 18.1%

C=CC(=O)N1CC[C@H](n2nc(C#Cc3cc(OC)cc(OC)c3)c3c(N)ncnc32)C1
any adverse drug reaction, any grade (human patients; oral, dose not given, QD regimen, adverse drug reaction, added: lanthanum carbonate hydrate): 100%

COc1c(OCCCN2CCOCC2)ccc2c1N=C(NC(=O)c1cnc(N)nc1)N1CCN=C21
oral mucositis incidence (patients with advanced malignancies; intravenous, dose not given, all grades, all cohorts, added: gemcitabine): 22%

C[C@H]1CN(C(=O)CC#N)[C@]12CCN(c1ncnc3[nH]ccc13)C2
AUC at NOAEL (minipig, female; dermal, 20 mg/kg repeated, 9 months): 79 ng·h/mL

CCN1CCN(Cc2ccc(Nc3ncc(F)c(-c4cc(F)c5nc6n(c5c4)[C@H](C)CCC6)n3)nc2)CC1
blood fibrinogen decreased incidence (Phase Ia dose escalation; patients with advanced solid tumours; dose not given, monotherapy, grade ≥3): 0%

CCC[C@@](N)(CO)CCc1ccc(OCCCCCC(C)C)cc1
AUC(0-t) (male hound dog, plasma; oral, 2.5 mg/kg, solution, geometric mean): 2.28 µM·h

N=C(N)NCCC[C@@H](NC(=O)[C@@H](N)Cc1ccccc1)C(=O)N[C@@H](Cc1ccccc1)C(=O)N[C@@H](CCCCN)C(N)=O
mean fraction excreted in urine (LC-MS; human; 25 mg, 11.83 h): 5.83%

Cn1ncc(-c2nc(N[C@H]3CC[C@H](N)CC3)ncc2Cl)c1CC1CC1
related adverse event incidence (phase I dose escalation; human patients; dose not given, treatment-related adverse events): 83.9%

C[C@@H]1OC(=O)NN=C1c1ccc(-c2ccc(F)cc2)c(C(F)(F)F)c1
patients with adverse event (phase I trial, refers to: platelet count decreased all grades; human patients; 5 mg loading then 0.25 mg daily): 0%

CCc1ccc(CC/C=C/c2ccc3c(c2)C(=O)CC3)cc1
GGT serum activity (Sprague-Dawley rat, female; oral, 120 mg/kg/day, 14 days): 0.33 U/L

C[C@@H]1NC(=O)[C@H](CCCCNC(=O)CO/N=C/C(=O)NCCCC[C@@H]2NC(=O)[C@@H](Cc3ccccc3)NC(=O)[C@H](CC(=O)O)NC(=O)CNC(=O)[C@H](CCCNC(=N)N)NC2=O)NC(=O)CNC(=O)[C@@H]2CCCN2C(=O)[C@H](CCCCNC(=O)CO/N=C/C(=O)NCCCC[C@@H]2NC(=O)[C@@H](Cc3ccccc3)NC(=O)[C@H](CC(=O)O)NC(=O)CNC(=O)[C@H](CCCNC(=N)N)NC2=O)NC(=O)[C@H](CCCCNC(=O)CN2CCCNCCNCCCNCC2)NC(=O)[C@H](CCCCNC(=O)CO/N=C/C(=O)NCCCC[C@@H]2NC(=O)[C@@H](Cc3ccccc3)NC(=O)[C@H](CC(=O)O)NC(=O)CNC(=O)[C@H](CCCNC(=N)N)NC2=O)NC(=O)CNC(=O)[C@@H]2CCCN2C(=O)[C@H](CCCCNC(=O)CO/N=C/C(=O)NCCCC[C@@H]2NC(=O)[C@@H](Cc3ccccc3)NC(=O)[C@H](CC(=O)O)NC(=O)CNC(=O)[C@H](CCCNC(=N)N)NC2=O)NC1=O [copper-64 labelled]
tissue uptake (normal mice, spleen; intravenous, 0.74 MBq, 24 h post-injection): 2.94 ± 0.31 %ID/g

O=C1[O][Pt]2([NH][C@@H]3CCCC[C@H]3[NH]2)[O]C1=O
tumour to organ ratio (AUC-based, refers to: platinum; BALB/c mice, CT26 tumour; iv; relative to: tumour over serum): 1.2

C=CC(=O)Nc1cc(Nc2nccc(Nc3cc(Cl)c(F)cc3C(C)(C)O)n2)c(OC)cc1N1CC[C@@H](N(C)C)C1
incidence of blood creatine phosphokinase increased (treatment-emergent adverse events; human; oral, 100 mg, phase I clinical trial): 22.2%

COc1ncccc1-c1cnn2ccc(N3CCN(C(=O)OC(C)C)CC3)nc12
drug concentration (rat, CCI cold allodynia model, brain; oral, 10 mg/kg, 240 min): 3.7 µM

COc1ccnc(C(=O)N[C@H]2COC(=O)[C@H](Cc3ccccc3)[C@@H](OC(=O)C(C)C)[C@H](C)OC2=O)c1OCOC(=O)C(C)C
NOAEL (liver toxicity; mouse; 18 month): 5.27 mg/kg/day

CCN1[C@@H](C(=O)NC23CCC(C(=O)O)(CC2)CC3)[C@H](c2cccc(Cl)c2F)[C@]2(C(=O)Nc3cc(Cl)ccc32)C12CCCCC2
ALT elevation incidence (patients with advanced solid tumours; oral, 150 mg): 12.5%

CNC(=O)c1cc(Oc2ccc(NC(=O)Nc3cc(C(C)(C)C)nn3-c3ccc4ncccc4c3)c(F)c2)ccn1
related SAE (pericardial effusion, NCI CTC v3.0; human patients; oral, 100 mg twice daily, tablet, dose at onset): 6%

O=S(=O)(Nc1ccccc1)c1ccc(NC(=S)Nc2ccccc2)cc1
blood cell fraction (refers to: RDW; male mouse, blood; oral, 5 mg/kg daily, 14 days): 16.2%

C=CCNc1c(O)cc2c(O)c1C[C@@H](C)C[C@H](OC)[C@H](O)[C@@H](C)/C=C(\C)[C@H](OC(N)=O)[C@@H](OC)/C=C\C=C(/C)C(=O)N2
patients with AST increase (unresectable or metastatic sarcoma; intravenous, 150 mg/m^2, grade 3-4 lab change): 0%

C[C@]1(CO)Cc2ncn(-c3ccc(C#N)c(Cl)c3)c2C(=O)O1
drug-related Headache incidence (Japanese subjects; dose not given, all doses total): 0%

CC(C)(O)c1cc(Nc2cc(Oc3cn(C4CC4)nc3C3CCOCC3)ccn2)ccn1
ALT increased, any grade (grade 4 glioma expansion cohort; oral, 50 mg twice daily): 0%

Cc1cn([C@H]2O[C@@H](CO[P@@](=O)(N[C@@H](C)C(=O)OC(C)C)Oc3ccccc3)[C@H](O)[C@H]2F)c(=O)[nH]c1=O
patients with TEAE (refers to: common cold; human; 10 mg): 0%

O=C(Nc1ccccc1)C1CCN(C(=O)Oc2cccnc2)CC1
subjects with tremor (adverse event reporting; healthy women; oral, 60 mg): 0%

N[C@@H]1c2ccccc2OC12CCN(c1cnc3c(N4CCCc5ncccc54)n[nH]c3n1)CC2
serious TEAE grade ≥3 (advanced solid tumour patients; oral, 40 mg once daily): 25%
